# Assay results pooled from the literature.
# Each line is one published result; not all experiments were run side by side. Several values in a cell are separate wells, animals, samples, runs or records. Numbers after ± are the reported error.
# Sequence of UniProt P30988 (whole entry, looked up): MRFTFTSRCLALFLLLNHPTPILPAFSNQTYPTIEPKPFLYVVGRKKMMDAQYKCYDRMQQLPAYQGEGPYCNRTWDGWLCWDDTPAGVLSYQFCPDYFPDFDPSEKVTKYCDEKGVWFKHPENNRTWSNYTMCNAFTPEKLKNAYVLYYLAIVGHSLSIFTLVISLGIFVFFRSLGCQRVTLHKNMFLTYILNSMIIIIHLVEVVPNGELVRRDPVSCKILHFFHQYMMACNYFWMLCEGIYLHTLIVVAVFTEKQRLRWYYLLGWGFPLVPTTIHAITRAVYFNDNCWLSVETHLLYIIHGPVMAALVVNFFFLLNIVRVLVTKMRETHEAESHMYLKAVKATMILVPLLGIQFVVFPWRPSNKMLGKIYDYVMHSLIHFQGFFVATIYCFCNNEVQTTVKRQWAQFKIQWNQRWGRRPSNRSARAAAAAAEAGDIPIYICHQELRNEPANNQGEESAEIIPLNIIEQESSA
# Sequence of UniProt Q14315 (whole entry, looked up): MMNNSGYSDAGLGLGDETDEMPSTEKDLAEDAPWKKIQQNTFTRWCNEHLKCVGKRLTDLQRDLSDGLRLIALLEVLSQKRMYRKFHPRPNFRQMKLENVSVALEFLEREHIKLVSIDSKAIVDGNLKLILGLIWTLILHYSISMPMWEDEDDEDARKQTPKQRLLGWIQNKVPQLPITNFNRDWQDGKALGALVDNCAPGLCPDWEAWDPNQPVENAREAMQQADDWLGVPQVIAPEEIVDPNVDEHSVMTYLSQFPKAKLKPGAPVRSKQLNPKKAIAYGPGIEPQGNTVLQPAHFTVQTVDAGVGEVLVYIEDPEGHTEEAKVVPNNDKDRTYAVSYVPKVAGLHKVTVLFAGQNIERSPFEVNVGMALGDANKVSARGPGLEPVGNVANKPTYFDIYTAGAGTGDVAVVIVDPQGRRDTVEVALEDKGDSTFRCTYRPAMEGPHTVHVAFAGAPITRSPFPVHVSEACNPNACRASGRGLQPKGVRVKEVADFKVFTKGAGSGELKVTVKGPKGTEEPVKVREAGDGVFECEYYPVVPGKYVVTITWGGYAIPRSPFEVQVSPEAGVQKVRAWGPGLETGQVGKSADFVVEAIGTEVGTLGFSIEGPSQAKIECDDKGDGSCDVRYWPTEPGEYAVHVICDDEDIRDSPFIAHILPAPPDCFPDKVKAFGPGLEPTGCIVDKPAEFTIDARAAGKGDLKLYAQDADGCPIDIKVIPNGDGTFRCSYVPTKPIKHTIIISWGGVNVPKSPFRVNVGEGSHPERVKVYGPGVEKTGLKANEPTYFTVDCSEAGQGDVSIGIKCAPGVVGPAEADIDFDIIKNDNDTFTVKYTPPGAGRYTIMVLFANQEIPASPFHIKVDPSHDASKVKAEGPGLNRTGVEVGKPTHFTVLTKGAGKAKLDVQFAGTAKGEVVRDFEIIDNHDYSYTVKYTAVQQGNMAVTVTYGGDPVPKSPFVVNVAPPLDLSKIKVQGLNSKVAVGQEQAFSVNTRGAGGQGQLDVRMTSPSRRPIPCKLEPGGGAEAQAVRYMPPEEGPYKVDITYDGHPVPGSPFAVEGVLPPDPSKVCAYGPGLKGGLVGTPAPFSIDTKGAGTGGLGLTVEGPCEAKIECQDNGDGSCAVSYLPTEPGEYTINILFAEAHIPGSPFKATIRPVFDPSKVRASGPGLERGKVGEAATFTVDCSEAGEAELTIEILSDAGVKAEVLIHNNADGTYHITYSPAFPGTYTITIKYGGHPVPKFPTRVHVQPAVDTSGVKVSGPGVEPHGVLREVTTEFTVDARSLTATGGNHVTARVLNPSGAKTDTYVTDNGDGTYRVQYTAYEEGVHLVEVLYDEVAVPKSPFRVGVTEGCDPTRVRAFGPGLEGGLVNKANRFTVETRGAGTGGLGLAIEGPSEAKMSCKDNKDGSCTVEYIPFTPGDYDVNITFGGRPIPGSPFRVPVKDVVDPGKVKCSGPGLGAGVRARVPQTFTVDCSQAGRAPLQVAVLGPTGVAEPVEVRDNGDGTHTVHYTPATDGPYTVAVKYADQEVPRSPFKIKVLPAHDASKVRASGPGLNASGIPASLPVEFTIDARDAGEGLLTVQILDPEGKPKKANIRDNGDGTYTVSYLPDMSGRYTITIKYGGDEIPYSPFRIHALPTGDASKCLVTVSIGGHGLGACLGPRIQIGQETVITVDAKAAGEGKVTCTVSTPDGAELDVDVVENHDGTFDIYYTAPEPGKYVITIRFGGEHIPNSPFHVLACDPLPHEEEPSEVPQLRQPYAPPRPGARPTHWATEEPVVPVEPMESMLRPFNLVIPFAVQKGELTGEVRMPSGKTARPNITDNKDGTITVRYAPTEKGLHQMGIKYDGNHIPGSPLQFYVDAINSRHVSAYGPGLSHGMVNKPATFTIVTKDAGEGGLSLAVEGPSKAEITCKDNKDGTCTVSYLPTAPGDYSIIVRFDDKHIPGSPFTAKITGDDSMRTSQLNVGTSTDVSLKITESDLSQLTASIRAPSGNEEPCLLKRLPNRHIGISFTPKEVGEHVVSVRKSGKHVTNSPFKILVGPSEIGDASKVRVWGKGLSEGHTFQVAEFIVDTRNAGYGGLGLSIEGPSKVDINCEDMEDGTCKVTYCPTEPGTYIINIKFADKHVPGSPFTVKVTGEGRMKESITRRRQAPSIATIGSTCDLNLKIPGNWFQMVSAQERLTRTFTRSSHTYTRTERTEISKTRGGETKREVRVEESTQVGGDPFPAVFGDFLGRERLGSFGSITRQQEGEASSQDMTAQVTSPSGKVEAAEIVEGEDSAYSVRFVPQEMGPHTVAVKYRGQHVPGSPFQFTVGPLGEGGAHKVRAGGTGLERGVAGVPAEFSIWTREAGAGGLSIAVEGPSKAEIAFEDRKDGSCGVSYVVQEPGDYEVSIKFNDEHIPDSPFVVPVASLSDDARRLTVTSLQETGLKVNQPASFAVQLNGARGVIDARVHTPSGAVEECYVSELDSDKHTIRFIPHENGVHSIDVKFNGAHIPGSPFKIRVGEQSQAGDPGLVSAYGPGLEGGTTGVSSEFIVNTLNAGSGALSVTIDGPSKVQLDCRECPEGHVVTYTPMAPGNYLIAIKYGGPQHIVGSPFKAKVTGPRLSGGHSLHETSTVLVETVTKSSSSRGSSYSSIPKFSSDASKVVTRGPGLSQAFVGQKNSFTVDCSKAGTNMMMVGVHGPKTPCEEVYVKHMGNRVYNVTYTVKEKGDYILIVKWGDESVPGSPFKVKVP
Compound,target or system,assay,test system,setting,how to read,measurement,result
CC[C@H](C)[C@H](NC(=O)[C@H](Cc1ccccc1)NC(=O)[C@H](CCC(=O)O)NC(=O)[C@H](CCCNC(=N)N)NC(=O)[C@H](C)NC(=O)[C@H](C)NC(=O)[C@H](CCC(N)=O)NC(=O)[C@H](CCC(=O)O)NC(=O)[C@H](CCC(=O)O)NC(=O)[C@H](CC(C)C)NC(=O)[C@H](Cc1ccc(O)cc1)NC(=O)[C@H](CO)NC(=O)[C@H](CO)NC(=O)[C@@H](NC(=O)[C@H](CC(=O)O)NC(=O)[C@H](CO)NC(=O)[C@@H](NC(=O)[C@H](Cc1ccccc1)NC(=O)[C@@H](NC(=O)CNC(=O)[C@H](CCC(=O)O)NC(=O)[C@H](C)NC(=O)CCc1cnc[nH]1)[C@@H](C)O)[C@@H](C)O)C(C)C)C(=O)N[C@@H](C)C(=O)N[C@@H](Cc1c[nH]c2ccccc12)C(=O)N[C@@H](CC(C)C)C(=O)N[C@H](C(=O)N[C@@H](CCCNC(=N)N)C(=O)NCC(=O)N[C@@H](CCCNC(=N)N)C(=O)N[C@@H](CCCCNC(=O)COCCOCCNC(=O)COCCOCCNC(=O)CC[C@H](NC(=O)CCCCCCCCCCCCCCCCC(=O)O)C(=O)O)C(=O)NCC(=O)NCC(=O)N[C@@H](CO)C(=O)N[C@@H](CCSC)C(=O)N[C@H](C(=O)N[C@@H](CCCCNc1c(NCCCCCN(O)C(=O)CCC(=O)NCCCCCN(O)C(=O)CCC(=O)NCCCCCN(O)C(C)=O)c(=O)c1=O)C(=O)O)C(C)C)C(C)C [zirconium-89 labelled],,ex vivo gamma counting,"male Sprague-Dawley rats, brain","intravenous, 1 nmol, 72 h, mean of 3 animals",,tissue uptake,0.0037 %ID/g
COc1ncnn2ccc(-c3cnc4nc(C)n(Cc5nnc([C@@H](C)F)o5)c4c3)c12,,,human patients,"oral, dose not given, grade 1 adverse drug reaction",,incidence of Malaise,14.3%
CC[C@H](C)[C@@H]1NC(=O)[C@@H]2CCCN2C(=O)[C@H](CC(C)C)NC(=O)[C@H](CC(C)C)NC(=O)CNC(=O)[C@@H](NC(=O)[C@@H](NC(=O)[C@H](CC(=O)O)NC(=O)CNC(=O)[C@@H](NC(=O)[C@H](C)NC(=O)CNC(=O)[C@H](CCCCN)NC(=O)[C@H](CC(C)C)NC(=O)[C@H](CC(C)C)NC(=O)[C@H](CCCCN)NC(=O)CNC(=O)[C@@H](NC(=O)[C@@H](N)CC(C)C)C(C)C)C(C)C)C(C)C)CSSC[C@@H](C(=O)O)NC1=O,,"RNA-seq, item: Them6","mouse, traumatic brain injury model, frontal cortex and hippocampus",dose not given,relative to: TBI alone,log2 fold change,-0.581
CC(=O)c1c(C)c2cnc(Nc3ccc(C4CCN(CCS(C)(=O)=O)CC4)cn3)nc2n(C2CCCC2)c1=O,,,"human, plasma","oral, 25 mg, day 1 single dose",,t1/2,1130 min
C[C@H]1CN(c2n[nH]c3nc(N[C@H]4CC[C@H](NS(=O)(=O)CCC(F)(F)F)CC4)ncc23)CCO1,"Filamin-C (FLNC, Homo sapiens, UniProt Q14315)","Kinobeads competition, item: FLNC",,"0.8 µM, unit not given",relative to: vehicle,remaining binding,1.08
O=c1nc(NO)ccn1[C@@H]1O[C@H](CO)[C@@H](O)[C@H]1O,,,rat maternal blood dialysate,"1000 ng/mL, more than 4 weeks, -20 °C, high concentration, together with: molnupiravir 250 ng/mL",,long-term stability,104 ± 7.63%
CCC[C@@](N)(CO)CCc1ccc(OCCCCCC(C)C)cc1,,,dog,"oral, 5 mg/kg",,Cmax,352 nM
COc1cc(Nc2ncc(F)c(Nc3ccc4c(n3)NC(=O)C(C)(C)O4)n2)cc(OC)c1OC,"Calcitonin receptor (CALCR, Homo sapiens, UniProt P30988)",,,,,IC50,> 10 µM
O[C@H]1CCCN[C@@H]1CCCn1cnc2c(Cl)c(Cl)ccc21,,,human,"oral, single dose",,participants with TEAEs,25%
Clc1ccc2nc(N3CCC(NCCc4cccnc4)CC3)sc2c1,Vero-E6,CellTiter-Glo ATP,,"72 h, retest 8-point duplicates","relative to: DMSO 0%, hyamine -100%, more negative, more toxic",maximum response,-17.2%
O=S(=O)(Nc1ccccc1)c1ccc(NC(=S)Nc2ccccc2)cc1,,item: Bu,"male mouse, blood","oral, 20 mg/kg daily, 14 days",,blood chemistry level,0.18 mg/dL
CNC(=O)c1cc(Oc2ccc(NC(=O)Nc3cc(C(C)(C)C)nn3-c3ccc4ncccc4c3)c(F)c2)ccn1,,"ejection fraction decreased, NCI CTC v3.0",human patients,"oral, 150 mg twice daily, tablet, dose at onset",,related SAE,3%
CN[C@@H](C)C(=O)N[C@H]1CN(S(=O)(=O)c2cccc(S(=O)(=O)N3CC[C@H]4CC[C@@H](C(=O)NC(c5ccccc5)c5ccccc5)N4C(=O)[C@@H](NC(=O)[C@H](C)NC)C3)c2)CC[C@H]2CC[C@@H](C(=O)NC(c3ccccc3)c3ccccc3)N2C1=O,,,patients with advanced solid tumours,"7 mg, phase I monotherapy",,treatment-related facial nerve disorder incidence,0%
COc1ncccc1-c1cnn2ccc(N3CCN(C(=O)OC(C)C)CC3)nc12,,,"rat, CCI mechanical hyperalgesia model, brain","oral, 10 mg/kg, 210 min",,drug concentration,4500 nM
O=C(Oc1ccc(I)cc1)[c-]1cccc1.[Fe+2].c1cc[cH-]c1,,cyclic voltammetry,methanol/DMEM 1:1 with TBAPF6,"concentration not given, Pt disk electrode, Ag/AgCl reference, together with: scan rate 100 mV/s",,reduction potential,502 mV
C=CCNc1c(O)cc2c(O)c1C[C@@H](C)C[C@H](OC)[C@H](O)[C@@H](C)/C=C(\C)[C@H](OC(N)=O)[C@@H](OC)/C=C\C=C(/C)C(=O)N2,,,"unresectable or metastatic STS, GIST, other","intravenous, 300 mg/m^2",,patients with arthralgia TEAE,33%
COc1ccc([C@@H]2CC(=O)c3c(O)cc(O)cc3O2)cc1O,,,"Sprague-Dawley rat, male, obese, faeces","oral, 100 mg/kg neohesperidin, 36-48 h",,faecal excretion,1640 ± 1090 ng
COc1cc2c(Oc3ccc4[nH]c(C)cc4c3F)ccnc2cc1OCC1(N)CC1,,,paediatric recurrent refractory sarcoma,12 mg,,grade 1 or 2 sinus tachycardia,18.2%
CC(C)Nc1ccnc(Nc2cccc(-c3cccnc3)c2)n1,,item: total protein,"mouse, blood","intraperitoneal, 3 mg/kg",,blood chemistry,5.1 g/dL
O=C(Nc1ccccc1)C1CCN(C(=O)Oc2cccnc2)CC1,,Bond-Lader VAS,healthy women,"oral, 20 mg","relative to: pre-dose baseline, direction not given",change in Incompetent-Proficient score,5.4
O=c1oc(-c2cccc(F)c2)ns1,,,RPMI medium,"concentration not given, 37 °C, spontaneous hydrolysis",,hydrolysis half-life,33.9 min
CC(C)n1c(C2CCNCC2)nc2c([N+](=O)[O-])c(Br)c(Br)cc21,,item: Sepsis,AML patients,"dose not given, all doses",,related grade ≥3 adverse events,1%
CC(C)[C@H](C(=O)O[C@H](C#N)c1cccc(Oc2ccccc2)c1)c1ccc(Cl)cc1,,IVIVE scaling,human adult,,,hepatic intrinsic clearance,1260 L/h/kg liver
Cn1cncc1-c1c(F)cncc1NC(=O)c1c(N)nn2cc(F)cnc12,,,human patients,"oral, 150 mg twice daily, 4 days per 3 days, 21 days",,anaemia DLT,75%
CCc1ccc(CC/C=C/c2ccc3c(c2)C(=O)CC3)cc1,,,"Sprague-Dawley rat, female","oral, 450 mg/kg/day, 14 days",,CK serum activity,350 U/L
CCN1[C@@H](C(=O)NC23CCC(C(=O)O)(CC2)CC3)[C@H](c2cccc(Cl)c2F)[C@]2(C(=O)Nc3cc(Cl)ccc32)C12CCCCC2,,,"human, advanced solid tumours","oral, every other day, 21 d on 7 d off",,MTD,150 mg
COc1cccc(Oc2ccccc2NC(=O)CNC(=O)c2cccc3ccccc23)c1,,,"esterase-deficient SCID mice, male","oral, 40 mg/kg/day, 14 days, toxicity study",,serum phosphorus,9.9 mg/dL and 9.8 mg/dL and 10 mg/dL
O=C1Nc2cc3[nH]nc(-c4ccncc4)c3cc2CN1Cc1ccccc1,,item: Photopsia,patients with advanced solid tumours,"intravenous, dose not given",,patients with TEAE,15%
C[C@]1(O)C[C@@](N)(c2ccc(-c3nc4n(c3-c3ccccc3)COc3ccncc3-4)cc2)C1,,,"human, advanced or metastatic solid tumours","intermittent, dose escalation total, any grade",,patients with Hyperphosphatemia TEAE,14.3%
C=CC(=O)N1CCC(c2ccc(C(N)=O)c(-c3ccc(Oc4ccccc4)cc3)n2)CC1,,CTCAE 4.03,patients with relapsed/refractory MCL,"oral, 150 mg once daily",,incidence of fatal serious TRAEs,0%
C[C@]1(CO)Cc2ncn(-c3ccc(C#N)c(Cl)c3)c2C(=O)O1,,investigator-assessed,"human, Chinese",20 mg single dose,,subjects with drug-related TEAEs,16.7%
CN1CC[C@@H](c2c(O)cc(O)c3c(=O)cc(-c4ccc(C(F)(F)F)cc4Cl)oc23)[C@@H]1CO,,item: Dizziness,AML,"oral, 200 mg, intermittent dosing",,patients with adverse event,10%
CO[C@H]1C[C@@H]2CC[C@@H](C)[C@@](O)(O2)C(=O)C(=O)N2CCCC[C@H]2C(=O)O[C@H]([C@H](C)C[C@@H]2CC[C@@H](OC(=O)NCCOCCOCCOCCOCCOCCOCCOCCOCCC(=O)N3CCc4cc(Cn5nc(-c6ccc7oc(N)nc7c6)c6c(N)ncnc65)ccc4C3)[C@H](OC)C2)C[C@@H](O)[C@H](C)/C=C(\C)[C@@H](O)[C@@H](OC)C(=O)[C@H](C)C[C@H](C)/C=C/C=C/C=C/1C,,,patients with advanced solid tumours,"intravenous, 10 mg weekly, grade 3 or higher",,AE leading to dose reduction,0%
C=CC(=O)N1CC[C@H](n2nc(C#Cc3cc(OC)cc(OC)c3)c3c(N)ncnc32)C1,,,"human patients, all","oral, dose not given, QD regimen, adverse drug reaction",,"hyponatremia incidence, grade ≥3",4.7%
COc1cc2nccc(Oc3ccc(NC(=O)c4cc5c(n(-c6ccccc6)c4=O)CCCC5=O)nc3)c2cc1OC,,,relapsed/refractory AML patients,"oral, 3 mg once daily",,fatal drug-related TEAEs,0%
CC(C)N(CCc1c[nH]c2cccc(OC(=O)CCCC(=O)O)c12)C(C)C.Cl,,,"male beagle dog, plasma","subcutaneous, 1 mg/kg",,Tmax,30 min
NCCCC[C@@H]1NC(=O)[C@@H](Cc2c[nH]c3ccccc23)NC(=O)[C@H](c2ccccc2)NC(=O)[C@@H]2C[C@@H](OC(=O)NCCN)CN2C(=O)[C@H](Cc2ccccc2)NC(=O)[C@H](Cc2ccc(OCc3ccccc3)cc2)NC1=O,,,healthy human volunteers,1950 µg twice daily,,subjects with abdominal distension,7%
C[C@@H](NC(=O)N1C(=O)[C@H](Cc2ccnc(N)c2)[C@H]1C(=O)O)C1CCCCC1,,,healthy Chinese adults,"continuous intravenous infusion, 1.0 mg/kg/h, 5.0 days",,related decreased WBC,0%
CC(C)C[C@H](NC(=O)[C@H](CCCCN)NC(=O)OCC1c2ccccc2-c2ccccc21)C(=O)N[C@H](C(=O)N[C@@H](Cc1ccccc1)C(=O)N[C@@H](Cc1ccccc1)C(=O)N[C@@H](CCCCN)C(=O)NCC(=O)N[C@@H](Cc1ccccc1)C(=O)N[C@@H](C)C(=O)N[C@@H](Cc1c[nH]c2ccccc12)C(=O)N[C@@H](CC(N)=O)C(=O)N[C@H](C(=O)N[C@H]1CSSC[C@@H](C(=O)N[C@@H](Cc2c[nH]cn2)C(=O)N[C@@H](CCCNC(=N)N)C(=O)N[C@@H](CCCNC(=N)N)C(=O)N[C@@H](C)C(=O)N[C@@H](CC(N)=O)C(N)=O)NC(=O)[C@H](C(C)C)NC(=O)[C@H](CCCNC(=N)N)NC(=O)[C@H](C(C)C)NC(=O)CNC(=O)[C@H](CC(N)=O)NC(=O)[C@H](CCCNC(=N)N)NC(=O)[C@H](Cc2ccc(O)cc2)NC(=O)[C@H](C(C)C)NC1=O)C(C)C)C(C)C,,"circular dichroism, item: α-Helix",PBS,"80 µM, pH 7.4, together with: LTA 1 µM",,secondary structure content,6.03%
O=C(c1ccc(F)c(F)c1Nc1ccc(I)cc1F)N1CC(O)([C@@H]2CCCCN2)C1,,,patients aged sample A to sample B years,"oral, dose not given",,related AE leading withdrawal,29%
CN(C(=O)n1cnc(-c2ccc[n+]([O-])c2)c1)C1CCCCC1,,,"Wistar rat, medulla oblongata","oral, 10 mg/kg/day, 24 h, repeated 5 days",,concentration,8.1 ± 4.2 ng/g

# Repeated from above:
Compound,target or system,assay,test system,setting,how to read,measurement,result
CN[C@@H](C)C(=O)N[C@H]1CN(S(=O)(=O)c2cccc(S(=O)(=O)N3CC[C@H]4CC[C@@H](C(=O)NC(c5ccccc5)c5ccccc5)N4C(=O)[C@@H](NC(=O)[C@H](C)NC)C3)c2)CC[C@H]2CC[C@@H](C(=O)NC(c3ccccc3)c3ccccc3)N2C1=O,,,patients with advanced solid tumours,"7 mg, phase I monotherapy",,treatment-related facial nerve disorder incidence,0%
COc1ncccc1-c1cnn2ccc(N3CCN(C(=O)OC(C)C)CC3)nc12,,,"rat, CCI mechanical hyperalgesia model, brain","oral, 10 mg/kg, 210 min",,drug concentration,4500 nM
O=C(Oc1ccc(I)cc1)[c-]1cccc1.[Fe+2].c1cc[cH-]c1,,cyclic voltammetry,methanol/DMEM 1:1 with TBAPF6,"concentration not given, Pt disk electrode, Ag/AgCl reference, together with: scan rate 100 mV/s",,reduction potential,502 mV
C=CCNc1c(O)cc2c(O)c1C[C@@H](C)C[C@H](OC)[C@H](O)[C@@H](C)/C=C(\C)[C@H](OC(N)=O)[C@@H](OC)/C=C\C=C(/C)C(=O)N2,,,"unresectable or metastatic STS, GIST, other","intravenous, 300 mg/m^2",,patients with arthralgia TEAE,33%
COc1ccc([C@@H]2CC(=O)c3c(O)cc(O)cc3O2)cc1O,,,"Sprague-Dawley rat, male, obese, faeces","oral, 100 mg/kg neohesperidin, 36-48 h",,faecal excretion,1640 ± 1090 ng
